Measured values of several laboratories.
Each line is one published result; not all experiments were run side by side. “And” joins repeats or separate records; there may be more than shown. ± marks the error that the study gave.
Cell line: Caco-2

Compound | test | system | conditions | how to read | endpoint | result
Nc1nc(Nc2ccc(Cl)cc2)nn1S(=O)(=O)c1ccc2ccccc2c1 | – | – | 10 µM, 90 (unit not given), pH 7.4 | – | Papp B-A | 0.122 ×10⁻⁶ cm/s
C=CCCCCOP(=O)(O)Oc1c2c(c(OP(=O)(O)OCCCCC=C)c3c1C1CC3c3cc4c(cc31)C1CC4c3ccccc31)C1CC2c2cc3c(cc21)C1CC3c2ccccc21 | CellTiter-Glo | – | 2 days | – | CC50 | 171 µM
CCCCC[C@@H]1OC(=O)[C@@H](C)N(C)C(=O)[C@H](CCCCC)OC(=O)[C@@H](C)N(C)C(=O)[C@H](CCCCC)OC(=O)[C@@H](C)N(C)C(=O)[C@H](CCCCC)OC(=O)[C@@H](C)N(C)C1=O | – | HBSS, <1% DMSO | 10 µM, 2 h, pH 7.4, apical to basolateral | – | recovery | 29%
C=CC(=O)NCc1ccc(OC(C)(C)C)cc1 | resazurin | – | 0.25 to 1 mM | – | viability | > 85%
F[P-](F)(F)(F)(F)F.OCP(CO)CO.OCP(CO)CO.OCP(CO)CO.OCP(CO)CO.[Cu+] | cell viability, MTT | – | 72 h | reference: cisplatin | sensitivity ratio | ~40 fold
O=P(O)(OCc1ccc(-c2ccccc2)cc1)Oc1c2c(c(OP(=O)(O)OCc3ccc(-c4ccccc4)cc3)c3c1C1CC3c3cc4c(cc31)C1CC4c3ccccc31)C1CC2c2cc3c(cc21)C1CC3c2ccccc21 | CellTiter-Glo | – | 2 days | – | CC50 | 40.8 µM
C=CC(=O)N1CCC(c2nc(-c3ccccn3)no2)CC1 | resazurin | – | 0.25 to 1 mM | – | viability | > 85%
C(#Cc1cncc(OC[C@@H]2CCN2)c1)c1ccccc1 | Caco-2 permeability | – | 100 µM, 2 h, pH 7.4, together with: MK-571 100 µM | reference: Papp B to A over A to B | efflux ratio | ~1
O=CN(CCCc1cn(-c2ccc(CN3CCOCC3)cc2)nn1)CCNc1ccnc2cc(Cl)ccc12 | – | – | – | – | CC50 | 92.2 ± 4.7 µM
CCCCn1cc(C(=O)O)c(=O)c2cc(F)c(Nc3ccccc3Cl)c([N+](=O)[O-])c21 | cell growth, SRB | – | 72 h | – | IC50 | 134 ± 22.4 µg/mL
CCCCCCCCCCCCCCCCOP(=O)(O)Oc1c2c(c(OP(=O)(O)OCCCCCCCCCCCCCCCC)c3c1C1CC3c3cc4c(cc31)C1CC4c3ccccc31)C1CC2c2cc3c(cc21)C1CC3c2ccccc21 | CellTiter-Glo | – | 2 days | – | CC50 | 244 µM
CCCCn1cc(C(=O)O)c(=O)c2cc(F)c(Nc3cccc(Cl)c3)c(N)c21 | cell growth or viability, SRB | – | – | – | IC50 | 46 µM and 63.6 µM
CC[C@H](C)[C@@H]1NC(=O)[C@H](CCCCN)NC(=O)[C@H]([C@@H](C)O)NC(=O)[C@H](Cc2ccccc2)NC(=O)[C@H]([C@@H](C)CC)NC(=O)[C@@H]2CCCN2C(=O)[C@@H](N)CSSC[C@@H](C(=O)NCC(=O)NCC(=O)N[C@@H](CCCNC(=N)N)C(=O)N[C@@H](CCCNC(=N)N)C(=O)N[C@@H](CCCCN)C(=O)N[C@@H](CCCCN)C(=O)O)NC(=O)[C@H]([C@@H](C)O)NC(=O)CNC(=O)[C@H](CCC(N)=O)NC1=O | MTT | – | up to 25.0 µM, 48 and 72 h | – | viability reduction | ~25%
CCCCCCOP(=O)(O)Oc1c2c(c(OP(=O)(O)OCCCCCC)c3c1C1CC3c3cc4c(cc31)C1CC4c3ccccc31)C1CC2c2cc3c(cc21)C1CC3c2ccccc21 | CellTiter-Glo | – | 2 days | – | CC50 | 208 µM
NCCNc1ccnc2cc(Cl)ccc12 | – | – | – | – | CC50 | 93.7 ± 25.8 µM
C=CC(=O)NC1CC(CO)(CO)C1 | resazurin | – | 0.25 to 1 mM | – | viability | > 85%
Clc1cc2oc3cc(Cl)c(Cl)c(Cl)c3c2cc1Cl | refers to: basolateral amount | Transwell model | 0.2 ng/mL, 24 h | reference: total applied amount | transport fraction | 4.4%
CCCCn1cc(C(=O)O)c(=O)c2cc(F)c(Nc3ccccc3Cl)c(N)c21 | cell growth or viability, SRB | – | – | – | IC50 | 264 µM
CC(C)C[C@H](N)C(=O)N1CCC[C@H]1C(=O)N[C@@H](Cc1ccccc1)C(=O)N[C@@H](C)C(=O)O | MTT | – | 0.5 and 1 mM, 4 h | – | viability | > 100%
CCCCCOP(=O)(O)Oc1c2c(c(OP(=O)(O)OCCCCC)c3c1C1CC3c3cc4c(cc31)C1CC4c3ccccc31)C1CC2c2cc3c(cc21)C1CC3c2ccccc21 | CellTiter-Glo | – | 2 days | – | CC50 | 185 µM
CN(C)CC1CCCCC1(O)c1cccc(O)c1 (centres unmarked) | – | – | concentration not given, apical-to-basolateral, apical pH 7.4 to 6.8 | – | permeability decrease | ~50%
CCCCn1cc(C(=O)O)c(=O)c2cc(F)c(Nc3cccc(Cl)c3)c([N+](=O)[O-])c21 | cell growth, SRB | – | 72 h | – | IC50 | 117 ± 6.46 µg/mL
C#CCC(C)OP(=O)(O)Oc1c2c(c(OP(=O)(O)OC(C)CC#C)c3c1C1CC3c3cc4c(cc31)C1CC4c3ccccc31)C1CC2c2cc3c(cc21)C1CC3c2ccccc21 (centres unmarked) | CellTiter-Glo | – | 2 days | – | CC50 | > 300 µM
Clc1c(Cl)c(Cl)c2c(oc3c(Cl)c(Cl)c(Cl)c(Cl)c32)c1Cl | refers to: basolateral amount | Transwell model | 0.2 ng/mL, 24 h | reference: total applied amount | transport fraction | 0.2%
CCCCn1cc(C(=O)O)c(=O)c2cc(F)c3c(nnn3-c3cccc(Cl)c3)c21 | cell growth or viability, SRB | – | – | – | IC50 | 223 µM
CCCCCCCCCCCCCCCCCCOP(=O)(O)Oc1c2c(c(OP(=O)(O)OCCCCCCCCCCCCCCCCCC)c3c1C1CC3c3cc4c(cc31)C1CC4c3ccccc31)C1CC2c2cc3c(cc21)C1CC3c2ccccc21 | CellTiter-Glo | – | 2 days | – | CC50 | > 300 µM
CCCCn1cc(C(=O)O)c(=O)c2cc(F)c3c(nnn3-c3ccccc3Cl)c21 | cell growth or viability, SRB | – | – | – | IC50 | 217 µM
O=P(O)(OCc1ccncc1)Oc1c2c(c(OP(=O)(O)OCc3ccncc3)c3c1C1CC3c3cc4c(cc31)C1CC4c3ccccc31)C1CC2c2cc3c(cc21)C1CC3c2ccccc21 | CellTiter-Glo | – | 2 days | – | CC50 | 292 µM
C1=CCCC=CCC1.C1=CCCC=CCC1.[Cl][Hg-]([Cl])[Cl].[Cl][Hg-]([Cl])[Cl].[Pt+][c]1ccccc1P(=Nc1ccccc1)(c1ccccc1)c1ccccc1.[Pt+][c]1ccccc1P(=Nc1ccccc1)(c1ccccc1)c1ccccc1 | Caco-2 monolayer transport | HBSS with HEPES | 20 µM, 90 min | – | Papp | 4.62 ×10⁻⁶ cm/s

A few entries again:
Compound | test | system | conditions | how to read | endpoint | result
CCCCCCCCCCCCCCCCCCOP(=O)(O)Oc1c2c(c(OP(=O)(O)OCCCCCCCCCCCCCCCCCC)c3c1C1CC3c3cc4c(cc31)C1CC4c3ccccc31)C1CC2c2cc3c(cc21)C1CC3c2ccccc21 | CellTiter-Glo | – | 2 days | – | CC50 | > 300 µM
Nc1nc(Nc2ccc(Cl)cc2)nn1S(=O)(=O)c1ccc2ccccc2c1 | – | – | 10 µM, 90 (unit not given), pH 7.4 | – | Papp B-A | 0.122 ×10⁻⁶ cm/s
CCCCC[C@@H]1OC(=O)[C@@H](C)N(C)C(=O)[C@H](CCCCC)OC(=O)[C@@H](C)N(C)C(=O)[C@H](CCCCC)OC(=O)[C@@H](C)N(C)C(=O)[C@H](CCCCC)OC(=O)[C@@H](C)N(C)C1=O | – | HBSS, <1% DMSO | 10 µM, 2 h, pH 7.4, apical to basolateral | – | recovery | 29%
C(#Cc1cncc(OC[C@@H]2CCN2)c1)c1ccccc1 | Caco-2 permeability | – | 100 µM, 2 h, pH 7.4, together with: MK-571 100 µM | reference: Papp B to A over A to B | efflux ratio | ~1
